Measurements of several laboratories.
A part holds a random share of what one study measured. Changes are numbered by the printed parent chain.

Series 1
Target: Fragile X messenger ribonucleoprotein 1, C-terminal low-complexity region (Fmr1, Mus musculus, UniProt P35922)
Method: RNA Bind-n-Seq
Form: RNA
Medium: in vitro
Concentration: 200 nM
Notes: whole 134-nt RNA, ends assumed
Together with: 150 mM KCl
Relative to: input library
Direction: higher = stronger binding
Quantity: log2 enrichment
All sequences stand within: GGGAGUUCUACAGUCCGACGAUC … UGGAAUUCUCGGGUGUCAAGG
CUCAAGUCCUGUGCUACACAUCGUAUGUACCGAAUCGGGGUUGGUUGGGUUGGAAAGUAUUAUGUUACGCCGUUCGGAUCUGCACUUCCA: 0.231
UCCUGUGCUACACAUCGUAUGUACCGAAUCGGGGUGGGGAAAAAGGGGAAAAAAAGGGGAAAGUAUUAUGUUACGCCGUUCGGAUCUGCA: 0.503
GCAGGAAGUACAAACAAAUGGAAAUGCUUCGGAUAGUGGCAGGGGUGGGGGUUGCUAAGGAAAGGGUGGGAUGGGAGUGGGUAAAGAGUU: 0.246
UGGGAGGUGGAUUUUGUUUAUUUUUUUAGCUCAUUUCCAGGGGUGGGAAUUUUUUUUUAAUAUGGGUCAUGAAUAAAGUUGUUUUUGAAA: 0.217
UCAAGUCCUGUGCUACACAUCGUAUGUACCGAAUCGGAAAGGAAAGGGGAAAGGAAAGUAUUAUGUUACGCCGUUCGGAUCUGCACUUCC: -0.439
CUGUGCUACACAUCGUAUGUACCGAAUCGGGGCCCCCCCGGCCCCCCCGGGGCCCCCCCGGAAAGUAUUAUGUUACGCCGUUCGGAUCUG: -0.727
GGUGCGGCUCUAUGAGUGGACAACAGAGAAGGAGCUGCGCACUGAGUGCAACCACUACAACAACAUCAUGGCCCUCUACCUGAAGACCAA: -0.00306
UGGGAGGUGGAUUUUGUUUAUUUUUUUAGCUCAUUUCCAGGGGUGCGAAUUUUUUUUUAAUAUGUGUCAUGAAUAAAGUUGUUUUUGAAA: 0.771
CCUCAAGUCCUGUGCUACACAUCGUAUGUACCGAAUCGGCGGGCGGGGCGGGGAAAGUAUUAUGUUACGCCGUUCGGAUCUGCACUUCCA: 0.461
GCAGGAAGUAAAAACAAAUGGAAAUGCUUCUGAUAGUGGCAGGGGUGGGGGUUGCUAAGGAAAGGGUGGGAUGGGAGUGGGUAAAGAGUU: 0.525

Series 2
Target: Sal-like protein 4, full length isoform B (SALL4, Homo sapiens, UniProt Q9UJQ4-2, residues 1-616)
Method: universal PBM
Form: double-stranded DNA, one strand shown
Medium: in vitro
Concentration: not given
Notes: 8-mer, flanks averaged, mean of replicates
Direction: higher = stronger binding
Quantity: E-score
CATCTTGA: -0.00573
AACGAATA: 0.199
CCTAGCAA: 0.00471
CCTCCACA: -0.0659
ACTCGTCC: -0.099
CTCAGGGA: -0.275
AATGGCTG: -0.0408
GACCGCAA: -0.142
AATACCTA: 0.316
ACGTTGAT: 0.17
CGCTACGC: -0.24
AGCACCAG: -0.116
AGAGCGTC: -0.0977
AAGGCGAT: 0.112
CATCGTTC: -0.161
TAAGAGGA: 0.0837
CTGATGAA: 0.0708
ATACGGTG: -0.00658
GCAAACAC: -0.0173
GAGGGTGC: -0.192
CAACAACC: -0.0253
CAAACCGG: -0.156
ATTTATAC: 0.3
GAATAAGC: 0.0481
ACACTACT: 0.0733

Series 3
Target: ABI1, truncated, D143A, DHFR fusion (Arabidopsis thaliana)
Method: DHFR PCA, deep sequencing
Medium: yeast
Notes: methotrexate growth selection, single substitutions
Together with: (+)-ABA 0.0091 µM
Relative to: wild-type fitted maximum
Direction: higher = stronger binding
Quantity: relative binding score
Parent: PYL1, truncated, DHFR fusion (Arabidopsis thaliana); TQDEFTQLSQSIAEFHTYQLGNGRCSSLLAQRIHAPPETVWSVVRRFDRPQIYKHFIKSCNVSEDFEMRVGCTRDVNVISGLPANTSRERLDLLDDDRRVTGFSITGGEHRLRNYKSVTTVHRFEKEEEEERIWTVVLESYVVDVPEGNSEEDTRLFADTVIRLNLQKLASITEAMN; partner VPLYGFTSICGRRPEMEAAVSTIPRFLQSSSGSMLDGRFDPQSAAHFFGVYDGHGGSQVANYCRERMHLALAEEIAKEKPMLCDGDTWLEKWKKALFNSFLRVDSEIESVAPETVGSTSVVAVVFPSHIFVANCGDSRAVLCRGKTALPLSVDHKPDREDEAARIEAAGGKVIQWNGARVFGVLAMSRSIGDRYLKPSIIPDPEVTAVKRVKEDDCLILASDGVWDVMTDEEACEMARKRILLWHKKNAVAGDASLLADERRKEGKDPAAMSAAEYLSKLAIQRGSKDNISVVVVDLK
T154K: 3.62%
R74W: -2.07%
F5T: 0.54%
V142D: 6.06%
T120Y: -5.69%
Q51A: -2.1%
H110K: 24.2%
T39Q: 6.87%
P36G: 3.72%
V118I: 20.6%
L82P: 0.039%
P146E: 2.78%
E14I: -4.34%
L112T: 0.0972%
S150V: 0.565%

Series 4
Target: Histone acetyltransferase KAT6A, both winged helices, GST fusion (KAT6A, Homo sapiens, UniProt Q92794, residues 1-181)
Method: protein binding microarray
Form: double-stranded DNA, one strand shown
Medium: in vitro
Concentration: not given
Notes: 8-mer, flanks averaged, mean of 2 arrays, mostly near background
Relative to: not given
Direction: higher = stronger binding
Quantity: E-score
Residues (chain): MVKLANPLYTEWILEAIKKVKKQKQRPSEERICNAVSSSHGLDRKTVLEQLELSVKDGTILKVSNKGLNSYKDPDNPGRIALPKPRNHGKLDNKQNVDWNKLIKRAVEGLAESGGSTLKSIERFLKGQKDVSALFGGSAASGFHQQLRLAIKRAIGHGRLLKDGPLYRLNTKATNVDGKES
AGTACAGC: -0.218
CGCCGACA: 0.314
AGTGGATC: -0.129
CAAGTGGA: -0.256
CGCGACTA: 0.194
CAATTCCG: 0.231
ATAACCAG: -0.177
GGAATGAA: 0.103
TTCGTAAA: -0.034
AGTTTCGG: 0.0505
CCGGATTC: 0.0431
AGCTCCCG: 0.0951
CGCAGTGA: 0.199
GGCATCGA: 0.00598
GTATAACA: -0.0946
GGTTCCCA: -0.00658
ATGGACAT: -0.101
AGCGAAAG: 0.0515
GTCTCAAA: 0.00348
AGGTGCAA: -0.255
GCCGCGAA: 0.315
GGCTCGAA: 0.0691
GTAGGTAA: -0.123
CACGATGA: -0.019
CAAGCTGA: -0.272

Series 5
Target: Protein C-ets-1 (ETS1, Homo sapiens, UniProt P14921, residues 1-441, Y397A, full length assumed)
Method: protein-binding microarray
Form: double-stranded DNA, one strand shown
Medium: in vitro
Concentration: not given
Notes: k-mer, scored over probes, only values ≥0.25
Direction: higher = stronger binding
Quantity: E-score
Construct (chain): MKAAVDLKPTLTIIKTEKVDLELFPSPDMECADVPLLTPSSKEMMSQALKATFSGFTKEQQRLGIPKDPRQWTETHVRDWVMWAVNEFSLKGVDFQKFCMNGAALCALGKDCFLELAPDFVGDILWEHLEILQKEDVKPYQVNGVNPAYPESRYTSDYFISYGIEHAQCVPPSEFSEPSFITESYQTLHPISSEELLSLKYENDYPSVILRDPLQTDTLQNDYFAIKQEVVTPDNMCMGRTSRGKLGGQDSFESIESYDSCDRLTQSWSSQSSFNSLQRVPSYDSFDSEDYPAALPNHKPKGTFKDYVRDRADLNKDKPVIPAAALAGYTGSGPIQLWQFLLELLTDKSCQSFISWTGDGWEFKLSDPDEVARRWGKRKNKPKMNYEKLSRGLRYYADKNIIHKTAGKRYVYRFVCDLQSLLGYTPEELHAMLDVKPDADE
ATTGTTAC: 0.339
GTTTGTCA: 0.385
ATTGTCGA: 0.348
ACCCGCCC: 0.359
CGCAAAAC: 0.293
CATTACAA: 0.291
TAATTGCA: 0.261
AACGACAA: 0.367
GTTGCAAC: 0.272
ATTTTGTC: 0.277
CACTGTCG: 0.277
ACAACATG: 0.309
ACTGCCAA: 0.302

Series 6
Target: CCNB3, cyclin fold, Cln2 fusion (human)
Method: yeast growth competition, sequencing
Medium: yeast
Notes: weak parent motif
Relative to: not given
Direction: higher = stronger binding
Quantity: normalised enrichment score
Parent: CDT1 docking peptide (human); PPARRRLRLSVDE; partner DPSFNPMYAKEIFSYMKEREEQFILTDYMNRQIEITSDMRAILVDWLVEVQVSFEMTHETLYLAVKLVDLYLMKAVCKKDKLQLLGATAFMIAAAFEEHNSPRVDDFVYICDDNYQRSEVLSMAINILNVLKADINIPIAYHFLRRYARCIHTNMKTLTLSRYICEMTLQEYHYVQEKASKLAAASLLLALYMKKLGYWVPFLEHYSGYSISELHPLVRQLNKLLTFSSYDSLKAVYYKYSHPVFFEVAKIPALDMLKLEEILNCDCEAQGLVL
PAARRRLRLSVDE [P2A]: 0.223
PPARRRLALSVDE [R8A]: 0.241
PPARKRLRLSVDE [R5K]: -0.0317
PPARRRLRLAVDE [S10A]: -0.019
PPAARRLRLSVDE [R4A]: 0.149
PPARRRLRLSADE [V11A]: 0.127
PPARRRLRLSVDA [E13A]: 0.406

Series 7
Target: ATF7, bZIP domain (human)
Method: DHFR protein complementation
Medium: yeast
Notes: single substitutions, most at no-binding floor
Relative to: wild-type JUN-FOS pair
Direction: higher = stronger binding
Quantity: binding fitness
Parent: JUN, bZIP domain (human); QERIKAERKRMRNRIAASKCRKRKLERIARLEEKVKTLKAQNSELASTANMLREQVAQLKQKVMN; partner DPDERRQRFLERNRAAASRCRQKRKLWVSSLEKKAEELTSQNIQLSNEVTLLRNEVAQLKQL
I28K: -1.05 natural log
T48H: -1.13 natural log
E44F: -1.09 natural log
A29G: -1.15 natural log
A46F: -1.13 natural log
R30N: -0.911 natural log
T48K: -0.983 natural log
E32I: -0.961 natural log
A57V: -1.13 natural log
T48D: -1.26 natural log
A49K: -1.1 natural log
I28E: -0.996 natural log

Single results of other studies
PhoQ, residues 284 288 289 292 302 303 ASTSDA  fold induction (PhoP, residues 12 14 15 18 19 VHSCL (Escherichia coli, UniProt P23836); Sort-seq, measured: YFP reporter; E. coli; PhoQ-PhoP variant library, together with: 10 µM Mg2+; relative to: high Mg2+ state, higher = stronger signaling): 2.27

For quick reference, copied from above (series 3):
T39Q: 6.87%
H110K: 24.2%
Q51A: -2.1%
V142D: 6.06%
P146E: 2.78%
V118I: 20.6%
T154K: 3.62%
F5T: 0.54%
R74W: -2.07%
E14I: -4.34%
